Measurements from different studies.
A part holds a random share of what one study measured.

Sample 1 — method: competition protein-binding microarray; form: double-stranded DNA, one strand shown; medium: in vitro; concentration: 2 µM; together with: Pho4 competitor, 0.05 µM; direction: higher = stronger binding; all sequences stand within: … GTCTTGATTCGCTTGACGCTGCTG
Target: Centromere-binding protein 1, full length, His-tagged (CBF1, Saccharomyces cerevisiae, UniProt P17106, residues 1-351)
UniProt P17106, sequence (whole entry, looked up): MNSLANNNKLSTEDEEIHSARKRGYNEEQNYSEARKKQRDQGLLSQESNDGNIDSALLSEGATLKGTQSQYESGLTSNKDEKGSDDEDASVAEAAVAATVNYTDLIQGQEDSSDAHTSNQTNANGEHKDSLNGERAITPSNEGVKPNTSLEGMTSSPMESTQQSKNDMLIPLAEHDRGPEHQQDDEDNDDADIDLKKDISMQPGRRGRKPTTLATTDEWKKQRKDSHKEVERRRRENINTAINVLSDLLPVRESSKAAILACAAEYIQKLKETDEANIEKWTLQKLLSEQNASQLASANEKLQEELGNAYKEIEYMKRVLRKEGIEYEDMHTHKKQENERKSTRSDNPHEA
Notes: whole 60-bp probe, lowest competitor level
Oligonucleotide | fluorescence intensity [a.u.]
TTGGTGTTTCTGCCTTACGTGGTGAGTTTAAGGACC | 79.7
GTCTTGTCTCATTGCTTTGTGGGTGTCCCCACTTCA | 88.3
GGCTCTGCCGAGTTCCAGGTGACGCTGGTGGTACGA | 60.7
GGCCACCAAAGTCCACACGTTGCGCTTGCCTTTTTG | 74
AAAAAAAACCGCCATCACGTAACCGTAGCTTCCACT | 74.5
AGCGATTGTAGCCAAATCGTGGGTACTGACTCTTGT | 67.7
ATGTGTAAATCCGATACCAATAAAGTCAATGATAGG | 80
CGGGGTTAAGTTTGACATGTGGGTGGCTTGCAGCAG | 84.2

Sample 2 — method: universal PBM; form: double-stranded DNA, one strand shown; medium: in vitro; concentration: not given; direction: higher = stronger binding
Target: Sal-like protein 4, full length isoform B (SALL4, Homo sapiens, UniProt Q9UJQ4-2, residues 1-616)
Notes: 8-mer, flanks averaged, mean of replicates
Oligonucleotide | E-score
GTAGATCA | 0.012
CCAAACGA | -0.0563
AATATCGC | 0.144
GTCAGGTA | -0.116
AACAACAA | 0.12
CATCCAAG | -0.157
CAGCGGAA | -0.249
CCCATAAG | 0.012

Sample 3 — effect on: enzyme activity; mode: inhibitor; concentration: 20 µM
Target: Replicase polyprotein 1ab, polymerase (rep, Severe acute respiratory syndrome coronavirus 2, UniProt P0DTD1)
Compound | inhibition [%]
CCCCC1=NC2(CCCC2)C(=O)N1Cc1ccc(-c2ccccc2-c2nnn[nH]2)cc1 | -4.21
Nc1c(CC(=O)O)cccc1C(=O)c1ccccc1 | -5.41
COc1cc2c(cc1Cc1cccc(Cl)c1F)c(=O)c(C(=O)O)cn2[C@H](CO)C(C)C | 1.04
O[C@H](CNC[C@@H](O)[C@H]1CCc2cc(F)ccc2O1)[C@@H]1CCc2cc(F)ccc2O1 | -9.83
O=c1[nH]c2ccccc2n1C1CCN(CCOc2ccccc2)CC1 | -1.38
COc1ccc(-c2cc(=O)c3c(OC)c(OC)c(OC)c(OC)c3o2)cc1OC | 4.77
C#CC1(OCC(O)CN2CCN(c3cccc(C(F)(F)F)c3)CC2)CCCCC1 (centres unmarked) | -0.43
O=c1cc(N2CCN(c3cccc(C(F)(F)F)c3)CC2)[nH]c(=O)n1C1CCCCC1 | -4.27
COc1ccc(CNC(=O)c2cc(-c3cncc(C)c3)ncc2-c2nccs2)nc1OC | -2.53
O=C(Nc1ccc(S(=O)(=O)C(F)(F)F)cc1)C1=CCN(c2ncccc2C(F)(F)F)CC1 | 1.76
Cc1ccc(C)c(OCCCC(C)(C)C(=O)O)c1 | 27.7
CCSC(=N)N | 0.64
O=C(Cc1ccc(Cl)c(Cl)c1)N1CCCCC1CN1CCCC1 (centres unmarked) | -0.01
O=C(NCCCN1CCCCCC1)C(c1ccccc1)C1CCCCC1 (centres unmarked) | -10.3
C=C1/C(=C\C=C2/CCC[C@]3(C)[C@@H]([C@H](C)/C=C/C=C/C(O)(CC)CC)CC[C@@H]23)C[C@@H](O)C[C@@H]1O | 4.73
CCCCCC(=O)O[C@]1(C(C)=O)CC[C@H]2[C@@H]3CCC4=CC(=O)CC[C@]4(C)[C@H]3CC[C@@]21C | 16.1
S=C=Nc1ccc(N=C=S)cc1 | -1.71
COc1cc(C(=O)N2CCC(N3CCN(C)CC3)CC2)ccc1Nc1ncc2c(n1)N(C)c1ccccc1C(=O)N2C | 11.4
O=C(O)c1ccc2cc(-c3ccc(O)c(C45CC6CC(CC(C6)C4)C5)c3)ccc2c1 | 3.2
CCSc1ccc2c(c1)N(CCCN1CCN(C)CC1)c1ccccc1S2 | -3.64
NNC(=O)CN1C(=O)CN=C(c2ccccc2)c2cc(Br)ccc21 | 3.03
Cc1nc(-c2cn3c(n2)-c2ccc(-c4cnn(C(C)(C)C(N)=O)c4)cc2OCC3)n(C(C)C)n1 | 5.73
C1CCC2(CC1)CCNCC2 | 0.05
CC(C)(C)NCC(O)c1ccccc1Cl (centres unmarked) | -2.12
Cc1c(OCC(F)(F)F)ccnc1C[S+]([O-])c1nc2ccccc2[nH]1 (centres unmarked) | 1.55

Sample 4 — effect on: enzyme activity; mode: inhibitor; concentration: 20 µM; notes: hit confirmation
Target: Replicase polyprotein 1ab, main protease (rep, Severe acute respiratory syndrome coronavirus 2, UniProt P0DTD1)
SMILES | inhibition
CCCCCCCCN=c1ccn(CCCCCCCCCCn2ccc(=NCCCCCCCC)cc2)cc1 | 25.7%
NC(Cc1cc(O)c(O)cc1O)C(=O)O (centres unmarked) | 83.9%
COc1cccc(C(=O)CCN[C@@H](C)[C@H](O)c2ccccc2)c1 | 90.5%

Sample 5 — method: protein binding microarray; form: double-stranded DNA, one strand shown; medium: in vitro; concentration: not given; relative to: not given; direction: higher = stronger binding
Target: Histone acetyltransferase KAT6A, both winged helices, GST fusion (KAT6A, Homo sapiens, UniProt Q92794, residues 1-181)
Notes: 8-mer, flanks averaged, mean of 2 arrays, mostly near background
Construct (chain): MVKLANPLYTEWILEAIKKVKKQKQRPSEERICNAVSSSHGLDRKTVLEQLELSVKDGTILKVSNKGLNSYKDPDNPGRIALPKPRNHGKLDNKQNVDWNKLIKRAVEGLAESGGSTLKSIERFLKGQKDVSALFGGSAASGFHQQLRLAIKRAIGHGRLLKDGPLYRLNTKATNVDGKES
Oligonucleotide | E-score
TAGTCACA | -0.0697
AGGAGCCC | -0.0847
AGCGCCCT | 0.231
GCACTGTA | 0.0487
TGCCGTAA | 0.258
TTGCCAAA | -0.121
AGGGAGAA | -0.242
ACAAGATC | -0.0139

Sample 6 — cell line: HEK-293T; effect on: pseudovirus infection; method: FDA-approved drug library screen; organism: VSV pseudotyped with SARS-CoV-2 spike; concentration: 10 µM; time: 16 h; relative to: vehicle-treated
SMILES | GFP-positive cells [%]
O=C(O)c1cc(/N=N/c2ccc(S(=O)(=O)Nc3ccccn3)cc2)ccc1O | 96.1
COC1=CC(=O)C[C@@H](C)[C@]12Oc1c(Cl)c(OC)cc(OC)c1C2=O | 99.3
CCCNC(C)C(=O)Nc1ccccc1C (centres unmarked) | 93.1
[H]/N=C(/NCCCCC)N/N=C/c1c[nH]c2ccc(OC)cc12 | 97.8

A few entries again (sample 4):
SMILES | inhibition
NC(Cc1cc(O)c(O)cc1O)C(=O)O (centres unmarked) | 83.9%
COc1cccc(C(=O)CCN[C@@H](C)[C@H](O)c2ccccc2)c1 | 90.5%
CCCCCCCCN=c1ccn(CCCCCCCCCCn2ccc(=NCCCCCCCC)cc2)cc1 | 25.7%
